Measured values gathered from unrelated publications.
“And” joins repeats or separate records; there may be more than shown. ± gives the spread as reported.
ABCG2: Broad substrate specificity ATP-binding cassette transporter ABCG2 (ABCG2, Homo sapiens, UniProt Q9UNQ0)
UniProt Q9UNQ0, sequence (whole entry, looked up): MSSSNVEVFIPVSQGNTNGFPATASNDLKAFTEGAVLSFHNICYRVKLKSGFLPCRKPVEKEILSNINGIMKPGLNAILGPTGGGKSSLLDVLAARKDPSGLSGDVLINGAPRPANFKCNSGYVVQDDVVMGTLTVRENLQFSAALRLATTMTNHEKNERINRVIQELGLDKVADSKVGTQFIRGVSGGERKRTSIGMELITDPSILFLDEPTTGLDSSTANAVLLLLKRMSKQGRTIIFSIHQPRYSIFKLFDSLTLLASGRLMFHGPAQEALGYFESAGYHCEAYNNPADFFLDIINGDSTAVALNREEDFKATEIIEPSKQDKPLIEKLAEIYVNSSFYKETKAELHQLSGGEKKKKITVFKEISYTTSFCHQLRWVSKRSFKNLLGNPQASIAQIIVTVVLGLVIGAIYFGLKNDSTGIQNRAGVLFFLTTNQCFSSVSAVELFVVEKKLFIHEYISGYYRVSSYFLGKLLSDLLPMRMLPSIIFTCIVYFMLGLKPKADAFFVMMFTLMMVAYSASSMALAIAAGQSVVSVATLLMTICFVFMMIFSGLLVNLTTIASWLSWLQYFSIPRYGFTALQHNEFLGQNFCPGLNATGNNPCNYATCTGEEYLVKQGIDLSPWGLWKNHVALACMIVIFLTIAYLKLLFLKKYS
SLC47A2: Multidrug and toxin extrusion protein 2 (SLC47A2, Homo sapiens, UniProt Q86VL8)
UniProt Q86VL8, sequence (whole entry, looked up): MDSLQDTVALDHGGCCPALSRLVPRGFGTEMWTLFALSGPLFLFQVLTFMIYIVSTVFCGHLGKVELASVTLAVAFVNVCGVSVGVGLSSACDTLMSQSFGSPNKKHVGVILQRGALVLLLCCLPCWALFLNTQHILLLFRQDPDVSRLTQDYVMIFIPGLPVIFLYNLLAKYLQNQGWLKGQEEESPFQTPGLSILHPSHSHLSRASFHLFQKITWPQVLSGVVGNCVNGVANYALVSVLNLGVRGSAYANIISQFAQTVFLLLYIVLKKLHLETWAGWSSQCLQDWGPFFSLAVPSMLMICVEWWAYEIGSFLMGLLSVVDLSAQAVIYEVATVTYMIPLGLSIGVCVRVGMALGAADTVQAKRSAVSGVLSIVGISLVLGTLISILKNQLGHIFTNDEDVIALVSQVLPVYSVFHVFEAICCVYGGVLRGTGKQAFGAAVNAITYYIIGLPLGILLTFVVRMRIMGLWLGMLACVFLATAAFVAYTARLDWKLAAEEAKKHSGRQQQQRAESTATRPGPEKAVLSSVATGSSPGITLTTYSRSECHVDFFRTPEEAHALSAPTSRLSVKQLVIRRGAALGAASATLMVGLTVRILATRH
UniProt Q9NPD5, sequence (whole entry, looked up): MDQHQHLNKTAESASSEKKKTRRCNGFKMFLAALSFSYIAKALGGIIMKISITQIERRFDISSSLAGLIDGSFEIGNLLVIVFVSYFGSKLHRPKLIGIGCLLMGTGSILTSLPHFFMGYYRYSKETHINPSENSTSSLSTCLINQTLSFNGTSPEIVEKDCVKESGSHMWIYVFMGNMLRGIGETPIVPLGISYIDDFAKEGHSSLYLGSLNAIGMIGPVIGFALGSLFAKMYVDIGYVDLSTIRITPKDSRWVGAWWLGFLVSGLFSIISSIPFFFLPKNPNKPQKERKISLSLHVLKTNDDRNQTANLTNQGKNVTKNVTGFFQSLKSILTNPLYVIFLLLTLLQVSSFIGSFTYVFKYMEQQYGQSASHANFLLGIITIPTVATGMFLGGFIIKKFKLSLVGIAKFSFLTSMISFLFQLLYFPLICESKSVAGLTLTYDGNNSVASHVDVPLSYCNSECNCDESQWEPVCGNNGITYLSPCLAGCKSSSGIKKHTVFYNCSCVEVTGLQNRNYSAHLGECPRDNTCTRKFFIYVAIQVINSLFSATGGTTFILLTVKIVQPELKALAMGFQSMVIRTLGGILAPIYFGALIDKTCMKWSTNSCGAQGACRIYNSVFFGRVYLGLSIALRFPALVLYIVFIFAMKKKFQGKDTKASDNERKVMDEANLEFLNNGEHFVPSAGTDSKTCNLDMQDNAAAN

The survival rate of `[Cl-].[Cl-].[Pt+2].[Ru+2].c1ccc(-c2nc3ccccc3nc2-c2ccccn2)nc1.c1cnc2c(c1)ccc1cccnc12.c1cnc2c(c1)ccc1cccnc12` is reported as 100% (Danio rerio; embryos; 15 µM, 0 h).
With `CC(C)C[C@@H](NC(=O)[C@H](N)CCCCN)C(=O)N[C@@H](C(=O)N[C@H](Cc1ccccc1)C(=O)N[C@H](Cc1ccccc1)C(N)=O)C(C)C` the viability was 100% (NGF-differentiated PC-12 neurons; 20 µM, 24 h; baseline: untreated).
For `COc1cccc(-c2n[nH]c(SCc3ccccn3)n2)c1OC`, “revertant colonies per plate” read 20 (Salmonella typhimurium; Ames test, plate incorporation; TA98; 0.063 mg/plate, without S9).
With `COc1ccccc1-c1ccc(CN2CCCC(c3nc4ccc(C)cc4c(=O)[nH]3)C2)cc1` (centres unmarked) the AC50 was 12.6 µM (Vero E6 cells; cytotoxicity, CellTiter-Glo; no virus).
With `Cc1cc(C(=O)NC(C)(C)COc2cccc3c2C(N)=NS(=O)(=O)N3)cc(C)n1` the revertant ratio was 1 (Escherichia coli; Ames test, confirmatory; WP2 uvrA; 5000 µg/plate, added: rat liver S9; baseline: solvent control).
`CO[C@H]1C[C@@H]2CC[C@@H](C)[C@@](O)(O2)C(=O)C(=O)N2CCCC[C@H]2C(=O)O[C@H]([C@H](C)C[C@@H]2CC[C@@H](OC(=O)NCCOCCOCCOCCOCCOCCOCCOCCOCCC(=O)N3CCc4cc(Cn5nc(-c6ccc7oc(N)nc7c6)c6c(N)ncnc65)ccc4C3)[C@H](OC)C2)C[C@@H](O)[C@H](C)/C=C(\C)[C@@H](O)[C@@H](OC)C(=O)[C@H](C)C[C@H](C)/C=C/C=C/C=C/1C` has a TRAE incidence of 50% (phase 1 dose escalation, item: nausea; advanced solid tumour patients; intravenous, 12 mg weekly, any grade).
`CCC(CC)COC(=O)[C@H](C)N[P@](=O)(OC[C@H]1O[C@@](C#N)(c2ccc3c(N)ncnn23)[C@H](O)[C@@H]1O)Oc1ccccc1` — result for “participants with adverse events”: 22.2% (human; intravenous, 100 mg).
With `Cc1ccc(Nc2ccnc(N3CCC(C(=O)NCCCc4ccccc4)CC3)n2)cc1` the maximum response was -28.1% (Vero-E6; CellTiter-Glo ATP; 72 h, retest 8-point duplicates; baseline: DMSO 0%, hyamine -100%, more negative, more toxic).
The brain-to-plasma ratio of `CCCC(C(=O)c1ccc(O)c(OC)c1)N1CCCC1` (centres unmarked) is reported as 0.7 ± 0.3 (rat; subcutaneous, 1 mg/kg MDPV, 40 min).
With `NC(=O)c1nc(F)c[nH]c1=O` the inhibition was 10.1% (ABCG2; transport, inhibitor; 100 µM, 5 (unit not given), pH 7, added: CCK-8).
With `O=C([O-])[C@@]1(CCCCCCOc2ccc(Cl)cc2)CO1.[Na+]` the maximum inhibition was 4.87% (human coronavirus OC43; virus-induced cell killing; MRC-5; screen).
`C[C@H]1CN(N=O)CCc2ccc(Cl)cc21` gave a relative survival of 87.6% (TK6; 2.5 µM, 4 h, added: hamster liver S9; baseline: vehicle).
`CCCC(C(=O)c1ccc2c(c1)OCO2)N1CCCC1.Cl` (racemic) gave a plasma concentration of 8.1 ± 0.6 ng/mL (LC-MS/MS; rat, trunk blood plasma; subcutaneous, 1 mg/kg, 240 min).
For `CCN(CC)CCCNC(=O)c1ccc(-c2nc(CN3CCc4ccccc43)c(C)o2)cc1`, the cytotoxicity efficacy was 0% (Vero-E6; CellTiter-Glo ATP; concentration not given, 72 h, second round 5-point; baseline: DMSO 0%, hyamine -100%, more negative, more toxic).
For `O=c1ccc2ccccc2o1`, the chance response was 0% (NHEK; cell membrane permeability; concentration not given, 6 h, apoptosis, necrosis panel).
The inhibition of `CCCCCCCCc1ccc(CCC(N)(CO)CO)cc1` is reported as -21.5% (ABCG2; transport, inhibitor; 100 µM, 5 (unit not given), pH 7, added: CCK-8).
`CCCCSCCCNC(=O)C1CCN(Cc2nc(-c3ccc(CC)cc3)oc2C)CC1` gave a cytotoxicity efficacy of -8.26% (Vero-E6; CellTiter-Glo ATP; concentration not given, 72 h, second round 5-point; baseline: DMSO 0%, hyamine -100%, more negative, more toxic).
For `CN(Cc1cnc2nc(N)nc(N)c2n1)c1ccc(C(=O)N[C@@H](CCC(=O)O)C(=O)O)cc1`, the maximum inhibition was 18.5% (human coronavirus OC43; virus-induced cell killing; MRC-5; screen).
The brain-to-plasma ratio of `CCCC(C(=O)c1ccc(O)c(O)c1)N1CCCC1` (centres unmarked) is reported as 0.3 ± 0.2 (rat; subcutaneous, 1 mg/kg MDPV, 40 min).
`O=C(c1ccc(F)c(F)c1Nc1ccc(I)cc1F)N1CC(O)([C@@H]2CCCCN2)C1`: “related AE leading withdrawal” 7% (patients aged 6 to sample A years; oral, dose not given).
`CC(=O)N1CCC(C(=O)N2CCN3C(=O)c4cc(-c5ccccc5)ccc4NC(=O)C3C2)CC1` (centres unmarked) — result for “revertants per plate”: 102 (Salmonella typhimurium; TA100; 1581 µg/plate, without S9).
`C=CCN1CC[C@]23c4c5ccc(O)c4O[C@H]2C(=O)CC[C@@]3(O)[C@H]1C5` gave a viability of 100% and 105% (Hep3B; MTT; 100 µM, 72 h, 10% FBS).
With `C[C@@H]1CCN(C(=O)CC#N)C[C@@H]1N(C)c1ncnc2[nH]ccc12` the inhibition was 25.3% (ABCG2; transport, inhibitor; 100 µM, 5 (unit not given), pH 7, added: CCK-8).
For `CC(C)C[C@H](NC(=O)[C@H](C)NC(=O)[C@@H](NC(=O)[C@H](CCCNC(=N)N)NC(=O)[C@H](CC(C)C)NC(=O)[C@H](Cc1c[nH]c2ccccc12)NC(=O)[C@@H]1CCCN1C(=O)[C@@H](N)CCCCN)C(C)C)C(=O)N[C@@H](CS)C(=O)N1CCC[C@H]1C(=O)NCC(=O)O`, the viability was 109% and 103% and 101% (HEp-2; WST-1; 32 µM, 24 h).
For `COc1cc2c(c(OC)c1OC)-c1ccc(OC)c(=O)cc1[C@@H](NC(C)=O)CC2`, the inhibition was -1.42e-14% (SLC47A2; transport, inhibitor; transiently transfected cells; 100 µM, 10 (unit not given), added: thiamine).
`CN1CC[C@@H](c2c(O)cc(O)c3c(=O)cc(-c4ccc(C(F)(F)F)cc4Cl)oc23)[C@@H]1CO`: “patients with adverse event” 0% (item: Lymphopenia; relapsed B-cell malignancies; oral, 200 mg, grade 3-4, intermittent dosing).
For `COc1cc2c(Oc3ccc4[nH]c(C)cc4c3F)ccnc2cc1OCC1(N)CC1`, the Appendicitis incidence was 9.1% (paediatric refractory sarcoma patients; 12 mg).
`CC(C)(C)N1CCC(c2ccccc2)(c2ccccc2)CC1` gave a maximum response of -4.28% (Vero-E6; CellTiter-Glo ATP; 72 h, retest 8-point duplicates; baseline: DMSO 0%, hyamine -100%, more negative, more toxic).
`O=C1c2c(O)c(=O)ccn2N([C@@H]2c3ccccc3SCc3c2ccc(F)c3F)[C@@H]2COCCN12` gave a plasma concentration of 42.7 ng/mL (BALB/c mice, plasma; oral, 5 mg/kg baloxavir marboxil, 2 h).
`O=C1CCC(N2C(=O)c3ccccc3C2=O)C(=O)N1` (centres unmarked) has an inhibition of -63.5% (SLCO1B3 (Homo sapiens, UniProt Q9NPD5); transport, inhibitor; transiently transfected cells; 100 µM, 10 (unit not given), added: CCK-8).
For `CC1CCN(CCCNC(=O)c2cc(Sc3ccc(F)cc3)nc3ccccc23)CC1`, the maximum response was -9.27% (Vero-E6; CellTiter-Glo ATP; 72 h, second round 5-point; baseline: DMSO 0%, hyamine -100%, more negative, more toxic).
The viability of `COc1ccc([C@@]23Oc4cc(OC)cc(OC)c4[C@@]24N=C(C2CC2)N[C@@]4(O)[C@H](C(=O)N(C)OC)[C@H]3c2ccccc2)cc1` is reported as 50% (A549; concentration not given, 24 h).
`CCOC(=O)c1c(CSc2ccccc2)n(C)c2cc(Br)c(O)c(CN(C)C)c12` has an inhibition of 115% (SLC47A2; transport, inhibitor; transiently transfected cells; 100 µM, 10 (unit not given), added: thiamine).
The clearance of `CC(=O)c1c(C)c2cnc(Nc3ccc(C4CCN(CCS(C)(=O)=O)CC4)cn3)nc2n(C2CCCC2)c1=O` is reported as 1480 mL/min (human, dose-escalation trial, plasma; oral, 100 mg twice daily, day 1, single dose).
The maximum response of `CCCCN(C)CCCNC(=O)c1ccc2nc(N3CCCCC3)sc2c1` is reported as -8.88% (Vero-E6; CellTiter-Glo ATP; 72 h, second round 5-point; baseline: DMSO 0%, hyamine -100%, more negative, more toxic).
`O=[N+]([O-])c1ccc(N2CCC(NCCC(O)c3ccc(F)c4ccccc34)CC2)c(C(F)(F)F)c1` (centres unmarked) gave a survival of 100% (Salmonella typhimurium; SOS/umu test; TA1535/pSK1002; 0.002 mg/mL, 4 h, with S9, lower range).
The maximum response of `COc1ccc2c(Sc3ccccc3)c(C(=O)NCCCN3CCCCC3)[nH]c2c1` is reported as -14.3% (Vero-E6; CellTiter-Glo ATP; 72 h, second round 5-point; baseline: DMSO 0%, hyamine -100%, more negative, more toxic).
With `CN/C(=N\[N+](=O)[O-])NCc1cnc(Cl)s1` the recovery was 58% (soil; 0.12 nominal, 0 days, Folsomia candida soil test).

For quick reference, copied from above:
`O=C1c2c(O)c(=O)ccn2N([C@@H]2c3ccccc3SCc3c2ccc(F)c3F)[C@@H]2COCCN12` gave a plasma concentration of 42.7 ng/mL (BALB/c mice, plasma; oral, 5 mg/kg baloxavir marboxil, 2 h).
`O=C1CCC(N2C(=O)c3ccccc3C2=O)C(=O)N1` (centres unmarked) has an inhibition of -63.5% (SLCO1B3 (Homo sapiens, UniProt Q9NPD5); transport, inhibitor; transiently transfected cells; 100 µM, 10 (unit not given), added: CCK-8).
For `CC1CCN(CCCNC(=O)c2cc(Sc3ccc(F)cc3)nc3ccccc23)CC1`, the maximum response was -9.27% (Vero-E6; CellTiter-Glo ATP; 72 h, second round 5-point; baseline: DMSO 0%, hyamine -100%, more negative, more toxic).
